# Assay results pooled from the literature.
# Every numbered part comes from another study and shows a few of its results, in no order. Positions count from the first letter of the parent shown.

# Study 1
# Molecule: B1 (RNF17 RING domain)
# Technique: yeast two-hybrid
# Matrix: yeast
# Setting: mostly zero background
# Relative to: not given
# Direction: higher = stronger interaction
# B1: RNF17 RING domain (UniProt Q9BXT8); chain SQPWGAAEIQCTRCGRRVSRSSGHHCELQCGHAFCELCLLMTEECTTIICPDCEVATAVNTRQR
target,lacZ reporter activity
UBE2M UBC core domain (UniProt P61081),0
UBE2E3 UBC core domain (UniProt Q969T4),0
UBE2C UBC core domain (UniProt O00762),0
UBE2J2 UBC core domain (UniProt Q8N2K1),0
UBE2O UBC core domain (UniProt Q9C0C9),0
UBE2S UBC core domain (UniProt Q16763),0
UBE2I UBC core domain (UniProt P63279),0
UBE2Z UBC core domain (UniProt Q9H832),0
UBE2R2 UBC core domain (UniProt Q712K3),0
UBE2L3 UBC core domain (UniProt P68036),0
UBE2Q1 UBC core domain (UniProt Q7Z7E8),0

# Study 2
# Target: CCNA2, cyclin fold, Cln2 fusion (human)
# Technique: yeast growth competition, sequencing
# Matrix: yeast
# Setting: strong parent motif
# Relative to: not given
# Direction: higher = stronger binding
# Parent: CDC25A docking peptide (human); PPHRRRLLFACSP
Variant,normalised enrichment score
PPHRRRLLFANSP [C11N],2.55
PPHRRRLLFYCSP [A10Y],1.94
PPHRRRLLFACSM [P13M],1.78
PPHRRRLLFADSP [C11D],3.88
PPHRRRLLEACSP [F9E],0.794
PPHRYRLLFACSP [R5Y],1.07
PPHRRRLLFATSP [C11T],2.68
PPHRRRLLFCCSP [A10C],2.09
PPSRRRLLFACSP [H3S],5.29
PPARRRLLFACSP [H3A],5.04
PPYRRRLLFACSP [H3Y],3.47
PPHRRRLLFASSP [C11S],3.24
PPKRRRLLFACSP [H3K],2.07
PPHRRRLLFAPSP [C11P],3.48
PPHTRRLLFACSP [R4T],1.55
PPHRARLLFACSP [R5A],1.96
PPHRRRLLFACEP [S12E],3.63
PPHRRRELFACSP [L7E],1.56
PPHRRRVLFACSP [L7V],1.18
PPHRRRLAFACSP [L8A],2.04
PPTRRRLLFACSP [H3T],5.24
PPHRRRLLLACSP [F9L],1.38

# Study 3
# Target: CREB3L2, bZIP domain (human)
# Technique: DHFR protein complementation
# Matrix: yeast
# Setting: single substitutions, most at no-binding floor
# Relative to: wild-type JUN-FOS pair
# Direction: higher = stronger binding
# Parent: JUN, bZIP domain (human); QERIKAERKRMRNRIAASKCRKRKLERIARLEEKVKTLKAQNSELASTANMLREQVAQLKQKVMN; partner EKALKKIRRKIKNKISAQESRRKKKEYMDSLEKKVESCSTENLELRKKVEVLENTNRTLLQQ
Variant,binding fitness [natural log]
L45G,-1.5
T37G,-1.33
A40L,-1.36
E44C,-1.53
L52Q,-1.64
R30G,-1.42
K36E,-1.56
Q55P,-1.56
K36T,-1.5
A29L,-1.46
L38Q,-1.49
L45F,-1.55
Q55C,-1.37
L52N,-1.46
K39N,-1.48
E54N,-1.63
E44M,-1.52
A49W,-1.49
A40P,-1.55
S47P,-1.49
T48W,-1.41

# Study 4
# Target: RNA binding protein fox-1 homolog 2, RRM domain, GST-SBP tag (RBFOX2, Homo sapiens, UniProt O43251-10, residues 100-194)
# Technique: RNA Bind-n-Seq
# Form: RNA
# Matrix: in vitro
# Concentration: 365 nM
# Setting: natural RNA segment, single round, ends assumed
# Relative to: no-protein control
# Direction: higher = stronger binding
# All sequences stand within: GGGAGUUCUACAGUCCGACGAUC … UGGAAUUCUCGGGUGCCAA
# Target sequence (chain): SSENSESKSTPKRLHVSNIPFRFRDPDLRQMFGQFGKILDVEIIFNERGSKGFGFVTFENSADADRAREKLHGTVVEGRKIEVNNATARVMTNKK
Strand,RBNS enrichment (R)
UCAGGAGAUUCAAAUUCUUGGCUGUUUCAGAACUCUUGAGCUCAGUCAGGCAGGGAUGUUUUUAAAGAAAUGAAUUUGAUCAUGUGGAAUCUGUUAGCUCUUAAGGCUCU,0.229
GGGUUCCAGGUAAGAGAAACAGAGACCCCUACCCCAGCUGUUUACUACCUGGUGGGCUGGUUGAGGAUGGGAGAGAGUUGGCUGUGUGCCAUGUUCAGAUGUAUGGUGGA,0.544
ACAGGCGUGUGCCAGCGCGCCUGGCUAAUUUUAAAAUUUUUUUGUAGAGACAGAGUCUCCCUCUGUUGCCCAGGCUGGUCUGGAACUCCUAGCUUCAAAUGAUCCUCUCA,0.424
AUGUCAGGGUUCUGCUCGGCUUCUUGGACCUUGGCGCUUAGUCCCCAUCCCGGGUUUGGCUGAGCCUGGCUGGAGAGCUGCUAUGCUAAACCUCCUGCCUCCCAAUACCA,0.56
AAUGAGUCAGACCUGUACUACUGAUUAUUAAGCAGGACAGACUGAGCUUUCUGCAAAUAGCUUGAAGGAGGAAACAAUUUCUGAACACACAAGUAGCACCGUGUCGCCUC,0.428
GUUUCACCUUCCCUCGACUUGACCCUUUCCUCCCCCAGCGUCAGUUUCACUCCCUCUUGGUUUUUAUCAAAUUUGCCAUGACAUUUCAUCUGGGUGGUCUGAAUAUUAAA,0.605
GGUCUCAGGCAGCACCACACUGGGUGCGUCUCCAGUCAUCUGUAAGAGCUUGCUCCAGAUUCUGAUGCAUACGGCUAUAUUGGUUUAUGUAGUCAGUUGCAUUCAUUAAA,0.349
UGACUUUGUUAUAAAAAUAGGGCUCCCCCACCUCCCCCAUUUCUGUGUCCUUUAUUGUAGCAUUGCUGUCUGCAAGGGAGCCCCUAGCCCCUGGCAGACAUAGCUGCUUC,0.635

# Some of these lines once more (study 3):
Variant,binding fitness [natural log]
L52N,-1.46
K39N,-1.48
E54N,-1.63
E44M,-1.52
A49W,-1.49
A40P,-1.55
S47P,-1.49
T48W,-1.41
